Assay results pooled from the literature.
Compare with care: the assays were run in different laboratories. Several values in a cell are separate wells, animals, samples, runs or records. ± marks the error that the study gave.
UniProt P40926, sequence (whole entry, looked up): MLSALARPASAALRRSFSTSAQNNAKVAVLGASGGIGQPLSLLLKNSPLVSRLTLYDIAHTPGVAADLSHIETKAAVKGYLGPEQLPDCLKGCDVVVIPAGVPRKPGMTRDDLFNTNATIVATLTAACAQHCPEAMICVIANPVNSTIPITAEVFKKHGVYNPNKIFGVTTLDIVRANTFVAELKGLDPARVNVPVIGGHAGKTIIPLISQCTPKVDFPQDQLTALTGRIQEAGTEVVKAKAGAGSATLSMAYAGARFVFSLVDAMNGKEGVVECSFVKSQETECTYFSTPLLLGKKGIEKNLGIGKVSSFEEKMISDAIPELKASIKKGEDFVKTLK

| SMILES | target or system | test | system | setting | how to read | quantity | value |
| --- | --- | --- | --- | --- | --- | --- | --- |
| O=C1Nc2cc3[nH]nc(-c4ccncc4)c3cc2CN1Cc1ccccc1 |  | refers to: QTc prolongation | patients with advanced solid tumours | intravenous, dose not given, schedules 1 and 2 |  | patients with grade ≥3 TEAE | 9% |
| COc1cc2c(cc1OC)CN(CCc1ccc(NC(=O)c3cccc4c(=O)c5cccc(OC)c5[nH]c34)cc1)CC2 |  |  | CD-1 mouse, male, plasma | intraperitoneal, 30 mg/kg |  | Tmax | 6 h |
| C[C@]1(O)C[C@@](N)(c2ccc(-c3nc4n(c3-c3ccccc3)COc3ccncc3-4)cc2)C1 |  |  | human, advanced or metastatic solid tumours | 16 mg once daily, dose-response cohort |  | patients with Nausea TEAE | 100% |
| Cc1nc([C@@](C)(CC2CC2)NC(=O)c2cc(OCC(F)(F)F)c(C3CC3)cn2)no1 |  |  | C57BL/6 mice, plasma | intravenous, dose not given |  | dose-normalised AUC(0-inf) | 1410 kg·ng·h/mL/mg |
| O=C(O)CCCOc1ccc(F)cc1-c1cc(-c2ccccc2C(F)(F)F)n(-c2ccccc2)n1 |  | refers to: adrenals | Crl:CD(SD) rats, female | iv, 25 µg/kg, 1 day |  | relative organ weight | 30.1 ± 3.3 mg% |
| CN1CCN(c2ccc(Nc3nccc(-c4ccncc4)n3)cc2C(F)(F)F)CC1 |  |  | zebrafish embryos | 50 µM, 5 days |  | toxicity | 5.6 ± 5.6% |
| Clc1ccc(Cl)c(-c2cc(Cl)ccc2Cl)c1 |  |  | Sprague Dawley rat, spleen | intraperitoneal, 100 mg/kg |  | relative organ weight | 0.0027 g/g body weight |
| CC(C)C1CCC(N2CCC(N3C(=O)C(=O)c4ccccc43)CC2)CC1 (stereo not drawn) |  |  | conscious Sprague-Dawley rat | intravenous bolus, 100 nmol/kg |  | persistence of sedation | ~30 min |
| CCC[C@@](N)(CO)CCc1ccc(OCCCCCC(C)C)cc1 |  |  | hound dogs, male | oral, 5 mg/kg, capsule, fed state, median |  | Tmax | 6 h |
| CC(C)C[C@@H]1NC(=O)CNC(=O)[C@H](CC(N)=O)NC(=O)[C@H](CCCNC(=N)N)NC(=O)[C@H]([C@@H](C)O)NC(=O)[C@@H]2CSSC[C@@H]3NC(=O)[C@H]([C@@H](C)O)NC(=O)CNC(=O)CNC(=O)[C@H](C(C)C)NC(=O)[C@@H]4CSSC[C@H](NC(=O)[C@H]([C@@H](C)O)NC(=O)[C@H](CSSC[C@H](NC(=O)[C@H](C(C)C)NC(=O)[C@@H]5CCCN5C1=O)C(=O)NCC(=O)N[C@@H](CCC(=O)O)C(=O)N[C@@H]([C@@H](C)O)C(=O)N4)NC(=O)CNC(=O)[C@@H]1CCCN1C(=O)[C@H](CCCCN)NC(=O)[C@H](CC(N)=O)NC3=O)C(=O)N[C@@H](CO)C(=O)N[C@@H](Cc1c[nH]c3ccccc13)C(=O)N1CCC[C@H]1C(=O)N[C@@H](C(C)C)C(=O)N2 |  | HPLC | ammonium bicarbonate 0.1 M | 180 µM, 7 days, pH 9.0, 37 °C, deamidation stability |  | remaining peptide | 72.3 ± 4.8% |
| N.N.[Cl][Pt][Cl] |  |  | nude mouse MCF7 xenograft | 5 mg/kg, day 0 |  | body weight | 19.3 ± 0.7 g |
| Cc1c(COC(=O)[C@@H]2[C@H](/C=C(\Cl)C(F)(F)F)C2(C)C)cccc1-c1ccccc1 (racemic) |  |  | pooled human liver cytosol |  |  | CLint | 0 µL/min/mg |
| CCCCCCCCCCCC[N+](C)(C)Cc1ccccc1.[Br-] |  |  | zebrafish larvae | 5 µM, intact compound, not light-degraded |  | mortality | ~80% |
| COc1cc2c(Oc3ccc4[nH]c(C)cc4c3F)ccnc2cc1OCC1(N)CC1 |  |  | paediatric recurrent refractory sarcoma | 8 mg |  | grade 1 or 2 Cholesterol elevation | 0% |
| COc1cccc(Oc2ccccc2NC(=O)CNC(=O)c2cccc3ccccc23)c1 |  |  | esterase-deficient SCID mice, male | oral, 100 mg/kg/day, 14 days, toxicity study |  | serum creatinine | 0.2 mg/dL and 0.1 mg/dL |
| CC[C@H](C)[C@H](NC(=O)[C@H](Cc1ccccc1)NC(=O)[C@H](CCC(=O)O)NC(=O)[C@H](CCCNC(=N)N)NC(=O)[C@H](C)NC(=O)[C@H](C)NC(=O)[C@H](CCC(N)=O)NC(=O)[C@H](CCC(=O)O)NC(=O)[C@H](CCC(=O)O)NC(=O)[C@H](CC(C)C)NC(=O)[C@H](Cc1ccc(O)cc1)NC(=O)[C@H](CO)NC(=O)[C@H](CO)NC(=O)[C@@H](NC(=O)[C@H](CC(=O)O)NC(=O)[C@H](CO)NC(=O)[C@@H](NC(=O)[C@H](Cc1ccccc1)NC(=O)[C@@H](NC(=O)CNC(=O)[C@H](CCC(=O)O)NC(=O)[C@H](C)NC(=O)CCc1cnc[nH]1)[C@@H](C)O)[C@@H](C)O)C(C)C)C(=O)N[C@@H](C)C(=O)N[C@@H](Cc1c[nH]c2ccccc12)C(=O)N[C@@H](CC(C)C)C(=O)N[C@H](C(=O)N[C@@H](CCCNC(=N)N)C(=O)NCC(=O)N[C@@H](CCCNC(=N)N)C(=O)N[C@@H](CCCCNC(=O)COCCOCCNC(=O)COCCOCCNC(=O)CC[C@H](NC(=O)CCCCCCCCCCCCCCCCC(=O)O)C(=O)O)C(=O)NCC(=O)NCC(=O)N[C@@H](CO)C(=O)N[C@@H](CCCCNC(=O)[C@H](CCCCNC(=O)[C@H](CCCCNc1c(NCCCCCN(O)C(=O)CCC(=O)NCCCCCN(O)C(=O)CCC(=O)NCCCCCN(O)C(C)=O)c(=O)c1=O)Nc1c(NCCCCCN(O)C(=O)CCC(=O)NCCCCCN(O)C(=O)CCC(=O)NCCCCCN(O)C(C)=O)c(=O)c1=O)NC(=O)[C@H](CCCCNc1c(NCCCCCN(O)C(=O)CCC(=O)NCCCCCN(O)C(=O)CCC(=O)NCCCCCN(O)C(C)=O)c(=O)c1=O)Nc1c(NCCCCCN(O)C(=O)CCC(=O)NCCCCCN(O)C(=O)CCC(=O)NCCCCCN(O)C(C)=O)c(=O)c1=O)C(=O)O)C(C)C [zirconium-89 labelled] |  | ex vivo gamma counting | male Sprague-Dawley rats, heart | intravenous, 1 nmol, 24 h |  | tissue uptake | 0.347 %ID/g |
| O=C(Nc1ccccc1)C1CCN(C(=O)Oc2cccnc2)CC1 |  | psychotropic effects VAS | healthy women | 100 mg | baseline: pre-dose baseline, direction not given | change in Colors score | 0.1 |
| CCN1CCN(Cc2ccc(Nc3ncc(F)c(-c4cc(F)c5nc6n(c5c4)[C@H](C)CCC6)n3)nc2)CC1 |  |  | advanced solid tumour patients | dose not given, Phase Ia monotherapy |  | Hyponatremia incidence, grade ≥3 | 0% |
| CC(=O)c1c(C)c2cnc(Nc3ccc(N4CCNCC4)cn3)nc2n(C2CCCC2)c1=O |  |  | healthy wild-type C57BL/6 mouse pups | oral, daily from postnatal day P10 |  | MTD | 100 mg/kg/day |
| C[C@H]1CN(c2n[nH]c3nc(N[C@H]4CC[C@H](NS(=O)(=O)CCC(F)(F)F)CC4)ncc23)CCO1 | Malate dehydrogenase, mitochondrial (MDH2, Homo sapiens, UniProt P40926) | inhibitor, Kinobeads competition profiling |  | 20 µM | baseline: vehicle | relative abundance | 1.19 |
| C[C@@H](NC(=O)N1C(=O)[C@H](Cc2ccnc(N)c2)[C@H]1C(=O)O)C1CCCCC1 |  |  | healthy Chinese adults | continuous intravenous infusion, 0.6 mg/kg/h, 5.0 days |  | decreased WBC | 25% |

| SMILES | target or system | test | system | setting | how to read | quantity | value |
| --- | --- | --- | --- | --- | --- | --- | --- |
| CN[C@H]1CC[C@@H](c2ccc(Cl)c(Cl)c2)c2ccccc21 |  |  | CD-1 mouse, male, plasma | intraperitoneal, 0.3 mg/kg |  | Tmax | 0.25 h |
| COc1ncnn2ccc(-c3cnc4nc(C)n(Cc5nnc([C@@H](C)F)o5)c4c3)c12 |  |  | human patients | oral, dose not given |  | incidence of decreased WBC (all grades) | 14.3% |
| CO[C@H]1C[C@@H]2CC[C@@H](C)[C@@](O)(O2)C(=O)C(=O)N2CCCC[C@H]2C(=O)O[C@H]([C@H](C)C[C@@H]2CC[C@@H](OC(=O)NCCOCCOCCOCCOCCOCCOCCOCCOCCC(=O)N3CCc4cc(Cn5nc(-c6ccc7oc(N)nc7c6)c6c(N)ncnc65)ccc4C3)[C@H](OC)C2)C[C@@H](O)[C@H](C)/C=C(\C)[C@@H](O)[C@@H](OC)C(=O)[C@H](C)C[C@H](C)/C=C/C=C/C=C/1C |  |  | patients with advanced solid tumours | intravenous, 1.6 mg/3 mg weekly, any grade |  | incidence of Fatigue TRAE | 20% |
| COc1ccc(-c2c(-c3ccc(C#N)c(F)c3)nc(N3CCC(N)CC3)n(C)c2=O)cc1F |  | refers to: Hypokalemia | human patients | oral, dose not given, dose escalation, NG |  | serious adverse event incidence | 2% |
| CC(=O)c1c([O-])cc(C)oc1=O.[Na+] |  |  | male Wistar rat, plasma | oral, 200 mg/kg, no CYP inhibitor |  | volume of distribution | 0.8 ± 0.094 L/kg |
| CCOc1cc(Oc2ccc(C(F)(F)F)cc2Cl)ccc1[N+](=O)[O-] |  |  | rat, female | 125 mg/kg, 4 days |  | final body weight | 95.6 ± 3.3 g |
| C[C@@H]1OC(=O)NN=C1c1ccc(-c2ccc(F)cc2)c(C(F)(F)F)c1 |  | phase I trial, refers to: Diarrhoea all grades | human patients | 10 mg loading then 0.5 mg daily |  | patients with adverse event | 100% |
| NCCCC[C@@H]1NC(=O)[C@@H](Cc2c[nH]c3ccccc23)NC(=O)[C@H](c2ccccc2)NC(=O)[C@@H]2C[C@@H](OC(=O)NCCN)CN2C(=O)[C@H](Cc2ccccc2)NC(=O)[C@H](Cc2ccc(OCc3ccccc3)cc2)NC1=O |  |  | healthy human volunteers | 1950 µg twice daily |  | subjects with abdominal discomfort | 14% |
| O=C(O)CCC(CP(=O)(O)O)C(=O)O (stereo not drawn) |  |  | rat, processed derivatized plasma | 8 µg/mL, 18 h, 10 °C, autosampler stability | baseline: nominal concentration | relative error | 0.8% |
| COc1ccnc(C(=O)N[C@H]2COC(=O)[C@H](Cc3ccccc3)[C@@H](OC(=O)C(C)C)[C@H](C)OC2=O)c1OCOC(=O)C(C)C |  | soil adsorption | clay soil | pH 7.6, organic carbon 1.7 % |  | KFoc | 8700 mL/g |
| Clc1ccc(-c2ccc(Cl)cc2Cl)cc1 |  |  | fresh water | 20 °C, SSP sampler, 100 µm |  | log K(PDMS-water) | 5.16 ± 0.03 |
| CN1CC[C@@H](c2c(O)cc(O)c3c(=O)cc(-c4ccc(C(F)(F)F)cc4Cl)oc23)[C@@H]1CO |  | refers to: Neutropenia | B-cell malignancies | oral, 100 mg, intermittent dosing |  | patients with adverse event | 0% |
| C[C@]1(CO)Cc2ncn(-c3ccc(C#N)c(Cl)c3)c2C(=O)O1 |  |  | human, plasma | 20 mg once daily, fasted |  | tmax at steady state | 1 h |
| CCC(CC)(NC(=O)c1ccc(N2CC(OC)C2)c(OC[C@H]2C[C@@H]2CO)n1)C(=O)NCCOCCOCCNC(=O)c1ccc2c(c1)C1(OC2=O)c2ccc(N(C)C)cc2[Si](C)(C)c2cc(N(C)C)ccc21 |  |  | PBS | 100 nM, pH 7.4, 0.1% DMSO |  | fluorescence quantum yield | 10.5% |
| O=C(Nc1ccccc1)C1CCN(C(=O)Oc2cccnc2)CC1 |  | refers to: abdominal distension | healthy female humans | concentration not given, safety set, all doses pooled |  | TEAE incidence | 4% |
| Clc1cccc(-c2ccc(Cl)c(Cl)c2)c1 |  |  | PDMS-water partitioning | PCB compilation | baseline: maximum over minimum K | literature range factor | 1.2 |
| O[C@H]1CCCN[C@@H]1CCCn1cnc2c(Cl)c(Cl)ccc21 |  |  | healthy CYP2D6 intermediate metabolizers, plasma | oral, 150 mg multiple doses |  | median AUCtau | 1510 ng·h/mL |
| c1cc2ccc3ccc4ccc5cccc6c(c1)c2c3c4c56 |  |  | fresh water | 12 (unit not given), 20 °C, S30-2 sampler, 30 µm |  | log K(PDMS-water) | 5.51 ± 0.08 |
| CN(C)CCC(c1ccccc1)c1ccccn1 (stereo not drawn) | Plasmodium falciparum |  | GB4 |  |  | IC50 | 5.01 µM |
| Clc1cc(Cl)c(-c2ccccc2)cc1Cl |  |  | polyethylene-water partitioning | PCB compilation | baseline: maximum over minimum K | literature range factor | 1.2 |
| NC(=O)[C@H]1CCN(c2ncnc(N)c2F)C[C@@H]1N1CCC[C@@H](Nc2cc(Cl)cc(C(F)(F)F)c2)C1=O |  |  | B-cell malignancy patients | oral, 328 mg twice daily, dose |  | grade ≥3 leukocytosis | 0% |

A few entries again:
| SMILES | target or system | test | system | setting | how to read | quantity | value |
| --- | --- | --- | --- | --- | --- | --- | --- |
| O[C@H]1CCCN[C@@H]1CCCn1cnc2c(Cl)c(Cl)ccc21 |  |  | healthy CYP2D6 intermediate metabolizers, plasma | oral, 150 mg multiple doses |  | median AUCtau | 1510 ng·h/mL |
| CC(=O)c1c(C)c2cnc(Nc3ccc(N4CCNCC4)cn3)nc2n(C2CCCC2)c1=O |  |  | healthy wild-type C57BL/6 mouse pups | oral, daily from postnatal day P10 |  | MTD | 100 mg/kg/day |
| O=C(O)CCC(CP(=O)(O)O)C(=O)O (stereo not drawn) |  |  | rat, processed derivatized plasma | 8 µg/mL, 18 h, 10 °C, autosampler stability | baseline: nominal concentration | relative error | 0.8% |
| CCC[C@@](N)(CO)CCc1ccc(OCCCCCC(C)C)cc1 |  |  | hound dogs, male | oral, 5 mg/kg, capsule, fed state, median |  | Tmax | 6 h |
